Measurements from different studies.
A part holds a random share of what one study measured. Positions count from the first letter of the parent shown.

Series 1 — method: RNA Bind-n-Seq; form: RNA; medium: in vitro; tested at: 200 nM; setting: whole 134-nt RNA, ends assumed; together with: 150 mM LiCl; relative to: input library; reading: higher = stronger binding; measurement: log2 enrichment; all molecules: 7-deaza-guanosine replaces G
Target: Fragile X messenger ribonucleoprotein 1, C-terminal low-complexity region (Fmr1, Mus musculus, UniProt P35922)
All sequences stand within: GGGAGUUCUACAGUCCGACGAUC … UGGAAUUCUCGGGUGUCAAGG
UUUUCAAGGGCCGCUUGAAGAUGCCAUUGAAGAUGAGGAAGAAGAAUGUCCAUCAGAGGAAACAGACAUCAUCUCCAAAGGAGACUUUCC: -2.1
CCUCAAGUCCUGUGCUACACAUCGUAUGUACCGAAUCGGUGGUGGAAAAAGGAAAGUAUUAUGUUACGCCGUUCGGAUCUGCACUUCCAG: 0.375
UGGAAGCUCAUACGACUGUGAAAGAAGCUGAGGAUGACAACAUCUCGGUCACAAUCCAGGCUGAAGAUGCCAUCACUCUGGAUUUUGAUG: -2.85
CACAGACAACUCGCACCCACACAGACACAGAGGGAAGGGGUUGGGAUGGGGACAGGGUGCACAGCAGGGCGGGGUAGGACCCCAGCCCCU: 0.0105
AGUCCUGUGCUACACAUCGUAUGUACCGAAUCGGGGCCCCGGGCCCCGGGGCCCCGGAAAGUAUUAUGUUACGCCGUUCGGAUCUGCACU: 0.455
UCAAGUCCUGUGCUACACAUCGUAUGUACCGAAUCGGGGUUUGGUUUGGGUUUGGAAAGUAUUAUGUUACGCCGUUCGGAUCUGCACUUC: -1.42
CUGUGCUACACAUCGUAUGUACCGAAUCGGGUUUUUUUGGGGUUUUUUUGGGUUUUUUUGGAAAGUAUUAUGUUACGCCGUUCGGAUCUG: 1.2
ACCAUGCAGGUGGGAAACUUUGGGAAGUGGGGCAAGGGGGGGAUAGGGAGGGGGGUAACACUUUGGGAACAGGUGGUCCCAGGUCGUUUC: 1.52
CAAGUCCUGUGCUACACAUCGUAUGUACCGAAUCGGAAAAAAAGGAAAGGAAAGGAAAGUAUUAUGUUACGCCGUUCGGAUCUGCACUUC: -0.978
ACCAUGCAGGUGGGCAUCUUUGGGAAGUGGGGCAAGGGGGGGGUAGGGAGGGGGGUAACACUUUGGGAACAGGUGGUCCCAGGUCGUUUC: 1.27
CAAGUCCUGUGCUACACAUCGUAUGUACCGAAUCGGGGUUUGGGGAGGGGAGGGGAAAGUAUUAUGUUACGCCGUUCGGAUCUGCACUUC: 0.122

Series 2 — target: ATF5, bZIP domain (human); method: DHFR protein complementation; medium: yeast; relative to: wild-type JUN-FOS pair; reading: higher = stronger binding; measurement: binding fitness
Setting: single substitutions, most at no-binding floor
Starting sequence: JUN, bZIP domain (human); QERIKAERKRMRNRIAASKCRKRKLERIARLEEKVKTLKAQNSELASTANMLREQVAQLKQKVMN; partner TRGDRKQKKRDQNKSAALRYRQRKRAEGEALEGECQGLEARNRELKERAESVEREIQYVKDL
T48L: -1.53 natural log
L45M: -1.48 natural log
I28L: -1.18 natural log
K36R: -1.32 natural log
R53N: -1.44 natural log
L38A: -1.53 natural log
L38E: -1.53 natural log
E33N: -1.49 natural log
L31P: -1.53 natural log
L31Q: -1.41 natural log
E32V: -1.35 natural log
A40C: -1.29 natural log
K36N: -1.47 natural log
R30G: -1.33 natural log
M51E: -1.29 natural log
T48E: -1.35 natural log

Series 3 — method: protein binding microarray; form: double-stranded DNA, one strand shown; medium: in vitro; tested at: not given; relative to: not given; reading: higher = stronger binding; measurement: E-score
Target: Histone acetyltransferase KAT6A, both winged helices, GST fusion (KAT6A, Homo sapiens, UniProt Q92794, residues 1-181)
Setting: 8-mer, flanks averaged, mean of 2 arrays, mostly near background
Residues (chain): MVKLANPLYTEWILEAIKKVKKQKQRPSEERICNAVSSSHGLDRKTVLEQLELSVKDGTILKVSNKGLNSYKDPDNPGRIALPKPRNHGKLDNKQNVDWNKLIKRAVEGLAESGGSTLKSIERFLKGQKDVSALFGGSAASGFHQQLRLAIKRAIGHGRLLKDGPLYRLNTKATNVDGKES
CCTTCACG: 0.13
ATAACGTC: 0.0237
CTTAATAC: -0.0869
AAAGCGAG: 0.106
CTTAGCGC: 0.274
GTAATTAA: -0.0261
AGCTCAAC: -0.178
GAAGGTGC: -0.048
GAGGATAC: -0.161
AAGGAGTG: -0.121
CAACCATC: -0.0463
AAGTTGCA: -0.0448
AGACAATG: -0.0489
GGTAAACA: 0.0468
CACCACAG: -0.105
AGGACTCC: -0.206
AATGGCGG: 0.106
ATTTAGTC: 0.0356
TAAATATA: -0.0498

Series 4 — method: aptamer microarray, sandwich; form: DNA with 2'F-ANA; medium: in vitro; tested at: 200 nM; together with: Cy3 exosite-II aptamer, 400 nM; reading: higher = stronger binding; measurement: mean fluorescence intensity; oligonucleotide: GGTTGGTGTGGTTGG
Target: Prothrombin, mature alpha-thrombin (F2, Homo sapiens, UniProt P00734)
Setting: whole 15-mer aptamer, many near background
2'F-ANA at 1 2 4 5 6 7 8 9 11 14 15: 49.4 a.u.
2'F-ANA at 2 5 12 13: 132 a.u.
2'F-ANA at 2 3 4 9 10 14: 193 a.u.
2'F-ANA at 2 4 7 10 11 12 13 15: 95.6 a.u.
2'F-ANA at 1 2 4 6 8 11: 105 a.u.
2'F-ANA at 3 4 5 7 8 10 11 12 13 14 15: 56.7 a.u.
2'F-ANA at 2 3 6 7 8 10 14: 337 a.u.
2'F-ANA at 1 2 3 4 5 11 14 15: 45.1 a.u.
2'F-ANA at 3 6 9 11 12 13 14: 558 a.u.
2'F-ANA at 1 2 4 6 8 10 12 13 14 15: 48 a.u.
2'F-ANA at 1 2 3 4 6 7 11 13 15: 95.2 a.u.
2'F-ANA at 3 5 6 7 9 10 11 12: 61.3 a.u.
2'F-ANA at 2 13 14 15: 123 a.u.
2'F-ANA at 4 6 11 12 14 15: 93 a.u.
2'F-ANA at 1 2 3 5 6 9 11 14 15: 52.8 a.u.
2'F-ANA at 1 3 4 5 6 9 12: 122 a.u.
2'F-ANA at 1 4 6 7 8 9 10 11 12 13 14 15: 69.1 a.u.
2'F-ANA at 1 3 4 5 6 7 8 12 14: 50.1 a.u.
2'F-ANA at 2 3 6 7 8 10 12 15: 406 a.u.
2'F-ANA at 6 7 11 12 13 14: 198 a.u.
2'F-ANA at 3 4 5 6 8 9 10 11 13 14: 49.3 a.u.
2'F-ANA at 1 2 4 5 6 7 8 11 12: 81.6 a.u.
2'F-ANA at 6 7 8 10 11 13 14: 98.7 a.u.
2'F-ANA at 2 4 5 8 9 11 12 14: 51.3 a.u.
2'F-ANA at 2 3 4 5 8 12 13 14 15: 54.5 a.u.

Series 5 — target: CCNE1, cyclin fold, Cln2 fusion (human); method: yeast growth competition, sequencing; medium: yeast; setting: weak parent motif; relative to: not given; reading: higher = stronger binding; measurement: normalised enrichment score
Starting sequence: SAMHD1 docking peptide (human); ASKSRVQLFKDDP
R5G: 0.0885
Q7V: 0.225
V6A: 0.255
Q7S: -0.324
K10V: 0.0788
R5K: 0.292
S2A: 0.38
R5V: 0.343
D11A: -0.00345
S4H: 0.699
D12S: 0.201
S4I: 1.15
K10R: 0.39
F9A: -0.156
S4F: 0.649
V6Q: -0.59
Q7Y: 0.346
K10T: 0.301
S2N: 0.102
D11G: 0.243

Series 6 — method: RNA Bind-n-Seq; form: RNA; medium: in vitro; tested at: 365 nM; relative to: no-protein control; reading: higher = stronger binding; measurement: RBNS enrichment (R)
Target: RNA binding protein fox-1 homolog 2, RRM domain, GST-SBP tag (RBFOX2, Homo sapiens, UniProt O43251-10, residues 100-194)
Setting: natural RNA segment, single round, ends assumed
All sequences stand within: GGGAGUUCUACAGUCCGACGAUC … UGGAAUUCUCGGGUGCCAA
Construct (chain): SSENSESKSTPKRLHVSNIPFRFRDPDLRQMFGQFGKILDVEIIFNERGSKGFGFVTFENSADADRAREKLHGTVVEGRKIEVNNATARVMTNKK
GGUCAUAAUUCAGUAUAUACUAGCCUACUCAUCUCUGAAGACUGACUUUGCUCGUAAUUUUUUUUUAAUUGGCCACAUAGCAUUAAUGCCUCCACAGGGUUCCUGUGUUU: 0.652
AUUAAAGGCUUUUCUUACUAUGUUUUAACCAAAGAUGUGGAGCAAUCCAAGCCGCAUAUCUACUGCAUUAAAUUUGUCCAUUUGGUUAUUCAUAAUCGGGUAUUGCAUUU: 1.52
AACUGAUUUAAAUAAUAUGUGUCUUUGUUUUGCAGCCCUGAAUGCAAAGAAUUCAUAGCAGUUAAUUCCCCUUUUUGACCCUUUUGAGAUGGAACUUUCAUAAAGUUUCU: 0.427
GCUUCUCCUCAGAGCCAGGCCCUGACUUGCCUUCUCCCACCCCGUGGACCGCUUCCCCUGCCUUCUCUCUGCCGUGGCCCAGAGCCGGCCCAGCUGCACACACACACCAU: 0.683
CCCCUCCUGGGUGCUCACCGCCUGCUACACAGGCAGGAAUGCGGUUGGGAGGCAGGUCGGGCUGCCAGCCCAGCUGGCCGGAAGGAGACUGUGGUUUUUGUGUGUGUGGA: 0.977
UGCGUGGUCUUUCUCCUCCUUUUCAAAGCAAUAGCCGCCGGGUCUGCAAAGCCCUGUCAGACAGACUGGGCCCUUCCAAGGUCAAGCCAUGUGUCUGAUGACAUUCCUGG: 0.211
GCCCUACAGCUGCCCCGAGUGUGGCAAGUGCUAUAGCCAGAACUCGUCCCUGCGCAGUCACCAAAGGGUGCACACUGGGCAACGGCCUUUCAGCUGUGGCAUCUGUGGCA: 6.54
GGGCCUGGAAGUUAUGUUGUUCAAAGAAGCCUGGUGGCAAUAAGGAUCUUCCCACUUUGCCACUGGAUGACUUUGGAUGGGUCACUUGUCCUCAGUUUUUCCUAGUCAUA: 0.157
CUACACCAUCUGGUGAGGAACCAAGGCCACCUCUGUGCCGGGAAAGACAUCACAUACCUUCAGCACUUCUCACAAUGUAACUGCUUUAGUCAUAUUAACCUGAAGUUGCA: 0.304
AAUUCUUAAAAGUUGAGACCAAUUGUAACCAGUUUAACUCAUUUUAGAUGACCUUUUUUUCUUAUAAUAUUUGCAAGUGACAAGUUUGAAAACAAAGCAAGAUCAGUGCA: 2.92
CAAGAACUCUGCUUCUUGCUUUGCAGAGUGCCAUGGUCAUGUCAUUCUGAGGUCACAUAACACAUAAAAUUAGUUUCUAUGAGUGUAUACCAUUUAAAGAAUUUUUUUUU: 0.632
ACUAACAUUUCCAAUAUCUGUAAGAUACCAAAGGACUGAGACUAACUGAUCUUUUAAUGGAAUUUCUUUGAAAUCAAAUCCAUAACUGAUUCUAUUAAGAUACAAUAGCU: 0.227

For quick reference, copied from above (series 5):
V6A: 0.255
Q7S: -0.324
K10V: 0.0788
R5K: 0.292
S2A: 0.38
R5V: 0.343
D11A: -0.00345
S4H: 0.699
D12S: 0.201
S4I: 1.15
K10R: 0.39
F9A: -0.156
S4F: 0.649
V6Q: -0.59
Q7Y: 0.346
K10T: 0.301
S2N: 0.102
